Published values pooled from the literature.
Parts stem from different laboratories: compare values within a part only. Several values in a cell are separate wells, animals, samples, runs or records.
Chain of UniProt P36897 (whole entry, looked up): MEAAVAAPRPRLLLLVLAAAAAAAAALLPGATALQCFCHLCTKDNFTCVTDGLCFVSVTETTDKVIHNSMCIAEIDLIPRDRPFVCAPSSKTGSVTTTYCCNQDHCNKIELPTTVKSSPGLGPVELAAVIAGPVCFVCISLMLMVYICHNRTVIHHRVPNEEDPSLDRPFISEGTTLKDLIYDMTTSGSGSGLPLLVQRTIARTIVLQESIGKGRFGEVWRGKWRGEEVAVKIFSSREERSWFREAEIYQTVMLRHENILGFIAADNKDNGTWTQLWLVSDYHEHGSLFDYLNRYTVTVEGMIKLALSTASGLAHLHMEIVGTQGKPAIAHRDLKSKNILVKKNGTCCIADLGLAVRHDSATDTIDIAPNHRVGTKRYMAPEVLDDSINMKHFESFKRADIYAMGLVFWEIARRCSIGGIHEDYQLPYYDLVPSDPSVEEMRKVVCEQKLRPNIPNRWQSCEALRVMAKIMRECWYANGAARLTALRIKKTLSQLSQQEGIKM
Chain of UniProt O96017 (whole entry, looked up): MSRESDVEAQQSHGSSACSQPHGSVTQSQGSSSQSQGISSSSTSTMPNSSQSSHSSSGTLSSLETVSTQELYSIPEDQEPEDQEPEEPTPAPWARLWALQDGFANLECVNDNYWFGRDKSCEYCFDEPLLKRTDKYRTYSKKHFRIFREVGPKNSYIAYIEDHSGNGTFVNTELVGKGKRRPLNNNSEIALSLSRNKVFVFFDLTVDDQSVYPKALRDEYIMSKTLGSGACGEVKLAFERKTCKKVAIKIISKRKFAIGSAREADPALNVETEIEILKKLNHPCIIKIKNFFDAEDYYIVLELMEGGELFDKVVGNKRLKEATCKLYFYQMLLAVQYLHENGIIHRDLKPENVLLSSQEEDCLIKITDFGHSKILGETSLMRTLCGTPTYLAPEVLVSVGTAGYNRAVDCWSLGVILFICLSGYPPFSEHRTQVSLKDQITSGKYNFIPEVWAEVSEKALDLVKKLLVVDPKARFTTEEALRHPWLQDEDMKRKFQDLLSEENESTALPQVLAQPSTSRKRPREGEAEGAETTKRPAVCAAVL
Chain of UniProt P07948 (whole entry, looked up): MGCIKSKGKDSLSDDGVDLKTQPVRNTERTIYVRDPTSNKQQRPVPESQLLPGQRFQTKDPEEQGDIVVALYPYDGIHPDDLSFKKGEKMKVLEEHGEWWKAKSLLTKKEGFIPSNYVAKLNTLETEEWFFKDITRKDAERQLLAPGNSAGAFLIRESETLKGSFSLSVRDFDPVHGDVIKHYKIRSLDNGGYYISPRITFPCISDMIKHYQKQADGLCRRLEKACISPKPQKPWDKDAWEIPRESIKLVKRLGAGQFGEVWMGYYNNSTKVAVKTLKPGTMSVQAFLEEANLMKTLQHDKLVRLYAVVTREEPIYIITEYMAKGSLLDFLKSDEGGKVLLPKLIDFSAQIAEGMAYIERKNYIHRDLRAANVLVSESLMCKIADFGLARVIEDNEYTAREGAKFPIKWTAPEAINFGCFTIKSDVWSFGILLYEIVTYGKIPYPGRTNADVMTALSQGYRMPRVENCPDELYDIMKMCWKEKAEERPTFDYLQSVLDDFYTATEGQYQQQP
Chain of UniProt Q13976 (whole entry, looked up): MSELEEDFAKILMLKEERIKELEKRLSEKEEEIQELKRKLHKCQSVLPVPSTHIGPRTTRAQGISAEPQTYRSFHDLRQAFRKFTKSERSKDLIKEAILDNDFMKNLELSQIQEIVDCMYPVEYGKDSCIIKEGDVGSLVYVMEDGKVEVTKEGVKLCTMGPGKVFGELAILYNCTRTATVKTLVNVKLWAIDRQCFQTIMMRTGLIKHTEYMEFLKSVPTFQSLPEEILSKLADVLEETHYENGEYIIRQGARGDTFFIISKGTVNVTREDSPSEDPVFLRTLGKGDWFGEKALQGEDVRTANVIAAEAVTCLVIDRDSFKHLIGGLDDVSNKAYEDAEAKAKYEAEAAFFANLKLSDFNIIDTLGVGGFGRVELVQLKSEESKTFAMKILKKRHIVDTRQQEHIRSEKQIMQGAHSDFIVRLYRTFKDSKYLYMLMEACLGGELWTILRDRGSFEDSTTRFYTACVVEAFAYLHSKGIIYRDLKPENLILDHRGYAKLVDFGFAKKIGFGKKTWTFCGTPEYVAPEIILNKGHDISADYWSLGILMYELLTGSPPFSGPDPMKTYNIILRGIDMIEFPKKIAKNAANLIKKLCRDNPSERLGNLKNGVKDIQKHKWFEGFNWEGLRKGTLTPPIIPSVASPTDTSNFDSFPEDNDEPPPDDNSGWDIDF
Chain of UniProt P37173 (whole entry, looked up): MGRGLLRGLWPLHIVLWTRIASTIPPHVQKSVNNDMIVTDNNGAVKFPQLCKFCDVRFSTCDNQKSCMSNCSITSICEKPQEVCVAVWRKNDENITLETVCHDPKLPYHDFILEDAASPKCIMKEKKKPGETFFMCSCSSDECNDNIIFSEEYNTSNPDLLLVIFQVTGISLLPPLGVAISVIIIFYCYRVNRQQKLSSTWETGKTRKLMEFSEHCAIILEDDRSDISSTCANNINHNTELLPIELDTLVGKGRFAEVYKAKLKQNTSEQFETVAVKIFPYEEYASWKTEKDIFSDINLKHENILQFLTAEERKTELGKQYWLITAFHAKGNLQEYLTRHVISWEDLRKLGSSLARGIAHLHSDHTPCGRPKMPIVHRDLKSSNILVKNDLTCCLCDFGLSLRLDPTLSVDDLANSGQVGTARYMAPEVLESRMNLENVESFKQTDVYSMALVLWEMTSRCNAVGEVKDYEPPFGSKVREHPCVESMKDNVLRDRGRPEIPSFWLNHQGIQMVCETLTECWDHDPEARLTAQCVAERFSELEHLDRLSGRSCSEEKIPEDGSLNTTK
Chain of UniProt P51955 (whole entry, looked up): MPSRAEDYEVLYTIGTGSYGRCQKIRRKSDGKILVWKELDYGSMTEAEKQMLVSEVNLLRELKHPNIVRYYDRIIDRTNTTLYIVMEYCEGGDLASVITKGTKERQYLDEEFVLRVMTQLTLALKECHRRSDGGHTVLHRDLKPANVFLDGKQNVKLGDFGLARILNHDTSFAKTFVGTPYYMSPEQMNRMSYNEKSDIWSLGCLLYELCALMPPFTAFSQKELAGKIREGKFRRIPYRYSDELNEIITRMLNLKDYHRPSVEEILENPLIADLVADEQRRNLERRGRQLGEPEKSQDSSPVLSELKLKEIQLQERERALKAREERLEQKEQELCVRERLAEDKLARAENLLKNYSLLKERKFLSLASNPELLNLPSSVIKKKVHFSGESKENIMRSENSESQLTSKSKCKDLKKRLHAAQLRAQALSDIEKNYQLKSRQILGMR
Chain of UniProt P35626 (whole entry, looked up): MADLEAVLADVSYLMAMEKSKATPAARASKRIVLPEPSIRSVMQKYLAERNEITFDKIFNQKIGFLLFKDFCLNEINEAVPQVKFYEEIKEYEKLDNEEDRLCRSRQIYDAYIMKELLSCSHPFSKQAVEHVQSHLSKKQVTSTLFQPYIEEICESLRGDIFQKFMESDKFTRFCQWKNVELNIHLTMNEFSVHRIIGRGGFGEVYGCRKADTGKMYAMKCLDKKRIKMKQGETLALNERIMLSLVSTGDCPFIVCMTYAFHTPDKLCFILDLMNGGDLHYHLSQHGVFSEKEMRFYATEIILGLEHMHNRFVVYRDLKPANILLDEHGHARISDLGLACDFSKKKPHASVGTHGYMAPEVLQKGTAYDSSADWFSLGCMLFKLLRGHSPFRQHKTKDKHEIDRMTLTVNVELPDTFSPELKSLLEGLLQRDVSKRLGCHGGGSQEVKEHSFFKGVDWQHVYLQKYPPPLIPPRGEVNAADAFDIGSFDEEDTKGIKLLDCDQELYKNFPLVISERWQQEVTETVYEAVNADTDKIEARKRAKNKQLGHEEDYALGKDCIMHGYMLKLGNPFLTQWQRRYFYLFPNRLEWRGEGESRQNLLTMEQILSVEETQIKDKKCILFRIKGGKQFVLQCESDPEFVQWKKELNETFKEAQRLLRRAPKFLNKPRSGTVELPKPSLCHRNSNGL
Chain of UniProt P45984 (whole entry, looked up): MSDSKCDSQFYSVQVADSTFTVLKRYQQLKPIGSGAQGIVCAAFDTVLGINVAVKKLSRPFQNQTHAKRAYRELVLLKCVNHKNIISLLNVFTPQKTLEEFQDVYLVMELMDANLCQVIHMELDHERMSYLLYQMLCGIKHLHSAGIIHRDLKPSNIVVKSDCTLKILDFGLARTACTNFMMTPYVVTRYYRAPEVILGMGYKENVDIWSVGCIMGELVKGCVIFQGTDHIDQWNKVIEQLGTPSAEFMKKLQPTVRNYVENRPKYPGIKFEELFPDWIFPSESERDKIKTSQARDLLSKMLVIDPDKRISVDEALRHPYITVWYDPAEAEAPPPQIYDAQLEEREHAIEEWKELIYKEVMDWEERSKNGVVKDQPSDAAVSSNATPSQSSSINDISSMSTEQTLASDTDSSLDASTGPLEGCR

Sample 1
Compound: O=C1C(Cl)=C(N2C(=O)CCC2=O)C(=O)c2ccccc21
Observed: enzyme activity
Mode: inhibitor
Concentration: 0.5 µM
Relative to: control
Endpoint: remaining activity
target = Cyclin-dependent kinase 4, with cyclin D1 (CDK4, Homo sapiens, UniProt P11802); result = 103%
target = DAPK2 (Homo sapiens, UniProt Q9UIK4); result = 133%
target = GRK3 (Homo sapiens, UniProt P35626); result = 103%
target = CAMKK2 (Homo sapiens, UniProt Q96RR4); result = 86.1%
target = IKBKE (Homo sapiens, UniProt Q14164); result = 99.6%
target = CAMK2D (Homo sapiens, UniProt Q13557); result = 109%
target = cGMP-dependent protein kinase 1, isoform beta (PRKG1, Homo sapiens, UniProt Q13976); result = 104%
target = NEK2 (Homo sapiens, UniProt P51955); result = 88.6%
target = Tyrosine-protein kinase Lyn, isoform B (LYN, Homo sapiens, UniProt P07948); result = 97%
target = PRKACA (Homo sapiens, UniProt P17612); result = 88.8%
target = MAPK9 (Homo sapiens, UniProt P45984); result = 93.6%
target = TGFBR1 (Homo sapiens, UniProt P36897); result = 101%
target = DAPK1 (Homo sapiens, UniProt P53355); result = 101%
target = IKBKB (Homo sapiens, UniProt O14920); result = 101%
target = CHEK2 (Homo sapiens, UniProt O96017); result = 95.7%
target = PRKCA (Homo sapiens, UniProt P17252); result = 99.1%
target = STK39 (Homo sapiens, UniProt Q9UEW8); result = 97.3%
target = Protein kinase C beta type, isoform beta-I (PRKCB, Homo sapiens, UniProt P05771); result = 92.1%
target = Cyclin-dependent kinase 5, with p25 (CDK5, Homo sapiens, UniProt Q00535); result = 87.3%
target = TGFBR2 (Homo sapiens, UniProt P37173); result = 130%
target = OXSR1 (Homo sapiens, UniProt O95747); result = 108%
target = MAP3K3 (Homo sapiens, UniProt Q99759); result = 95.5%

Sample 2
Host: mouse
Matrix: microsomes or S9
Concentration: 2 µM
Time: 0.5 h
Endpoint: remaining compound
Compound = Nc1c(Br)cc(Br)cc1C(=O)NC1CCCCC1; result = 31.6%
Compound = CC(C)CN1CCN(S(=O)(=O)c2ccc(-c3nnc(C(C)C)o3)o2)CC1; result = 0.509%
Compound = Cc1nn(C)cc1Nc1nnc(Cn2nc(C(F)(F)F)c(Cl)c2C)s1; result = 29.6%
Compound = Cc1cc(C)cc(N(C)S(=O)(=O)c2cn(C)c(=O)[nH]c2=O)c1; result = 79.8%
Compound = Cc1ccc(C2CC(=O)Nc3c2c(C)nn3-c2ccc(N3CCCCC3)nn2)cc1C (centres unmarked); result = 26.6%
Compound = Cn1c(=O)n(-c2ncccc2C#N)c2ccccc21; result = 43.4%
Compound = CCOc1cccc(C2c3cccn3-c3sc4c(c3CN2C(=O)NCc2ccc(C)cc2)CCCC4)c1 (centres unmarked); result = 5.21%
Compound = Cc1nc[nH]c1-c1nccn1[C@H]1CCc2ccccc21; result = 14.1%

Sample 3
Cell line: mouse MPNST tumor cells
Technique: high-content nuclear imaging
Item: cell number
Concentration: 10 µM
Time: 12 h
Setting: mean of 2 replicates
Relative to: plate mean
Direction: higher = more cells
Endpoint: nuclei count
Structure (SMILES) = O=C(C1CC1)N1CC[C@@H](Cc2n[nH]c(=O)n2-c2ccc(-c3ccc4occc4c3)cc2)C1; result = 1.56 z-score
Structure (SMILES) = Cc1cnc(NC(=O)Nc2cc(Br)c(C)cc2OC[C@@H]2CNCCO2)cn1; result = -5.05 z-score
Structure (SMILES) = O=C(O)c1ccc(-c2ccc3cc(O)c(C45CC6CC(CC(C6)C4)C5)cc3c2)cc1; result = -2.22 z-score
Structure (SMILES) = OC(c1ccc(-c2ccc(CN3CCN(Cc4ccncc4)CC3)cc2)c(F)c1)(C(F)(F)F)C(F)(F)F; result = 0.521 z-score
Structure (SMILES) = NS(=O)(=O)c1cc2c(cc1Cl)NC(C(Cl)Cl)NS2(=O)=O (centres unmarked); result = -1.66 z-score
Structure (SMILES) = O=c1[nH]c(=O)n([C@H]2C[C@H](O)[C@@H](CO)O2)cc1F; result = -2.37 z-score
Structure (SMILES) = CCCNC(C)C(=O)Nc1ccccc1C (centres unmarked); result = 2.21 z-score
Structure (SMILES) = CCOC(=O)C1=C(C)NC(C)=C(C(=O)OCC)C1c1ccccc1/C=C/C(=O)OC(C)(C)C; result = -0.838 z-score
Structure (SMILES) = Oc1ncnc2[nH]ncc12; result = 2.23 z-score and 1.22 z-score

Sample 4
SMILES: Cc1c(NC(=O)c2cc(C(N)=O)nc3cc(F)ccc23)c(C(F)(F)F)nn1Cc1ccc(C(C)(C)C)cc1
Technique: competition with immobilised ligand
Concentration: 1 µM
Endpoint: remaining binding
target = MAK (Homo sapiens, UniProt P20794); test = cell-free assay; result = 85%
target = PRKCE (Homo sapiens, UniProt Q02156); test = cell-free assay; result = 67%
target = LRRK2 (Homo sapiens, UniProt Q5S007); test = cell-free assay; result = 100%
target = ACVRL1 (Homo sapiens, UniProt P37023); test = cell-free assay; result = 94%
target = TGFBR1 (Homo sapiens, UniProt P36897); test = cell-free assay; result = 91%
target = ULK2 (Homo sapiens, UniProt Q8IYT8); test = cell-free assay; result = 100%
target = PIK3C2G (Homo sapiens, UniProt O75747); test = cell-free assay; result = 100%
target = Tyrosine-protein kinase ABL1, non-phosphorylated (ABL1, Homo sapiens, UniProt P00519, F317I); test = binding; result = 100%
target = MAP3K12 (Homo sapiens, UniProt Q12852); test = cell-free assay; result = 100%
target = STK17A (Homo sapiens, UniProt Q9UEE5); test = cell-free assay; result = 79%
target = CSNK1G3 (Homo sapiens, UniProt Q9Y6M4); test = cell-free assay; result = 100%
target = TRPM6 (Homo sapiens, UniProt Q9BX84); test = cell-free assay; result = 100%
target = CHEK2 (Homo sapiens, UniProt O96017); test = cell-free assay; result = 99%
target = MARK1 (Homo sapiens, UniProt Q9P0L2); test = cell-free assay; result = 100%

A few entries again (sample 1):
target = OXSR1 (Homo sapiens, UniProt O95747); result = 108%
target = MAPK9 (Homo sapiens, UniProt P45984); result = 93.6%
target = cGMP-dependent protein kinase 1, isoform beta (PRKG1, Homo sapiens, UniProt Q13976); result = 104%
target = CAMK2D (Homo sapiens, UniProt Q13557); result = 109%
